# Assay results collected from several papers.
# Parts stem from different laboratories: compare values within a part only.

# Set 1 — method: RNA Bind-n-Seq; molecule type: RNA; sample: in vitro; concentration: 365 nM; baseline: no-protein control; reading: higher = stronger binding
# Target: RNA binding protein fox-1 homolog 2, RRM domain, GST-SBP tag (RBFOX2, Homo sapiens, UniProt O43251-10, residues 100-194)
# Setting: natural RNA segment, single round, ends assumed
# Constant ends, left off below: GGGAGUUCUACAGUCCGACGAUC … UGGAAUUCUCGGGUGCCAA
# Target sequence (chain): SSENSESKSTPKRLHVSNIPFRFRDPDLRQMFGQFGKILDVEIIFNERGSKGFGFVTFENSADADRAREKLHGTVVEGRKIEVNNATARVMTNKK
Oligonucleotide,RBNS enrichment (R)
CUCCUUGAGGUGCACAAGCACGGUCUCCUCUGAGUUCACCCCAGCCCACCCCCGCACCCACUAAUUCUGCUUUUCCUGCCCCUUGCUCCGUAAAAGUAUCAAAUACUUUC,1.52
UAAGAGUGGGAGGCAGCCAAGACCCCCUUCCUUCAAAACCUCCCGGAAGUGGUUUCAGGCCCUCUAGUUGCCAUGACCAAUUUGUGUGUGUGUUUAAUUUUUGCUUCAAG,0.502
UCUUGUUUAAAAGAUGUCUGAAACCUUUUUAUGGCGUGUUUGUAUUAAAAAUAAAGUAUAGAGGCCAGAGAGUGCUUCCUUUUGUUCACCCUGUUGUCCUUACCACAUUA,0.326
CUUCAAAGUACACUUGCAAUGCAGUGUAUGCCUGUAGUUGCUGCUGCCACCGGCAGGGGGCCUUUGCUUACAGGGUCUGCAUAGGUUGUUAUGGAUUUGUGACUUUGGCA,0.739
CCGAGCCAGCAGCUGAAGUCUCUUUUUCUUCCUCUCGGCUGGAAGAACAUCAAGAUACCUUUGCGUGGAUCAAGCUUGUGUACUUGACCGUUUUUAUAUUACUUUUGUAA,0.339
CCGUUCCAUGACAUGCAAGGGGAAGCUCACAGAAGAAGCCCACUGUAACUCAGUGUGAAGCAAGUGUUUGUCCCUGCCCGCUAUCAGCCUACAGAGCAACAUUGUCAUUG,0.181
GGGUUAGAAUUGGAAGGGAAGAGGAAAGAUGAGCAGAGUAGAGAGAUUUAACAAAUCACUUCCUUCAUCCUUGUUGUUAUGGAAACCGUUGCCAGAGCUGGAAGUUUCCA,0.923
AGUUUGGCUGUUGUUGCAGGAAAAUGAUUAUAACUAAAAGCUCUCUGAUAGUGCAGAGACUUACCAGAAGACACAAGGAAUUGUACUGAAGAGCUAUUACAAUCCAAAUA,0.563
GUUAACAUGUCAGCUGGCCCUCCAGGCCCCCGCCCCCAUCCCGUCCACGUUGCUGUGUCGUGAGGUGCAGCGGGUCACCCUGUGGCCCGUCCUGUGACCCAUAUUUAGCC,0.24
CACACCCGCCUUUCUUGAAUGGCUUCGUGUUACUCAGCCGUGCCCUGGCAGGAAUGGAACUCCAUCAGGGAACAGGGCAGCUCUGUUUGAAUGGGGUGAAAAACAGCAAA,0.742
CUAUCCCGUGAGUGGAUUGUGAGAAAUUCCACCCACGUGGAGACAGCUUACUGCAGCACUGUUGGUGUUCGGAGCUCUUCUGUGCCCUGGCUCCAUGCUUUCACCUACAC,0.301
UAUCUAUCUUAUUUCAGUACUUCGGCAAGAGAGAACCUAACUGUAUCUUUGAGGCGAUAGUAGAACACAGAGGCCAGUAACGGGUCGUAAUGACUUACUGUGGAUAACAA,0.478

# Set 2 — method: RNA Bind-n-Seq; molecule type: RNA; sample: in vitro; concentration: 200 nM; setting: whole 134-nt RNA, ends assumed; together with: 150 mM LiCl; baseline: input library; reading: higher = stronger binding; library: 7-deaza-guanosine replaces G
# Target: Fragile X messenger ribonucleoprotein 1, C-terminal low-complexity region (Fmr1, Mus musculus, UniProt P35922)
# Constant ends, left off below: GGGAGUUCUACAGUCCGACGAUC … UGGAAUUCUCGGGUGUCAAGG
Oligonucleotide,log2 enrichment
CUCAAGUCCUGUGCUACACAUCGUAUGUACCGAAUCGGCCCGGCCCGGCCCGGGAAAGUAUUAUGUUACGCCGUUCGGAUCUGCACUUCC,0.479
UGGCCCUGGUGGCAUGCGGGGAGGAAGAGGUGGCCUCAUGGAUCGUUGUGGUCCCGGUGGAAUGUUCAGAGGUGGCCGUGGUGGAGACAG,0.101
UAGAUAUCCAUAGAAAAGAGAACUCUGGAGCUGCAGAGAAGCCUGUCACCAUCCAUGCCACCCCAGAGGGGACUUCUGAAGCAUGCCGCA,-0.216
CCUGUGCUACACAUCGUAUGUACCGAAUCGGGGUGGGGUUUUUUUGGGGUUUUUUUGGGGAAAGUAUUAUGUUACGCCGUUCGGAUCUGC,-0.331
UGGGAGGUGGUUUUUGUUUAUUUUUUUAGCUCAUUUCCAGGGGUGGGAAUUUUUUUUUAAUAUGUGUCAUGAAUAAAGUUGUUUUUGAAA,0.266
CCUCAAGUCCUGUGCUACACAUCGUAUGUACCGAAUCGGAGGUUUGGAAAGGAAAGUAUUAUGUUACGCCGUUCGGAUCUGCACUUCCAG,-0.735
UGUGCUACACAUCGUAUGUACCGAAUCGGGAAAAAAAGGGGAAAAAAAGGGGAAAAAAAGGGAAAGUAUUAUGUUACGCCGUUCGGAUCU,0.667
GUCCUGUGCUACACAUCGUAUGUACCGAAUCGGGUUUGGGAAAAAGGGUUUUUUUGGGAAAGUAUUAUGUUACGCCGUUCGGAUCUGCAC,-1.67
UCCUCAAGUCCUGUGCUACACAUCGUAUGUACCGAAUCGGUGGGGUGGUGGAAAGUAUUAUGUUACGCCGUUCGGAUCUGCACUUCCAGC,-0.475
CACAGACAACACGCACCCACCCAGACACAGAGGGAAGGGGUUGGGAUGGGGACAGGGUGCACAGCAGGGCGGGGUAGGACCCCAGCCCCU,-1.07
AAGUCCUGUGCUACACAUCGUAUGUACCGAAUCGGGGAGGGGUGGGGAAAAAGGGGAAAGUAUUAUGUUACGCCGUUCGGAUCUGCACUU,-0.1

# Set 3 — method: protein binding microarray; molecule type: double-stranded DNA, one strand shown; sample: in vitro; concentration: not given; baseline: not given; reading: higher = stronger binding
# Target: Histone acetyltransferase KAT6A, winged helix 1, GST fusion (KAT6A, Homo sapiens, UniProt Q92794, residues 1-85)
# Setting: 8-mer, flanks averaged, mean of 2 arrays, mostly near background
# Residues (chain): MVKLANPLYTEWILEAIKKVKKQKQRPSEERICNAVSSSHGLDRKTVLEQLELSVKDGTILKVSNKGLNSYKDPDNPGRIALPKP
Oligonucleotide,E-score
CTCTCCAG,-0.189
ATCATCCG,0.0151
TGCGAACA,-0.0101
TAACGACA,-0.0608
GAAGGTTA,0.0653
ACGAATAT,-0.128
AACCTGAG,-0.0269
CAATCATG,-0.206
GGCTTAAA,0.111
AACGTAGG,-0.154
GCTCCGGA,0.127
ATGGACGA,-0.115
AAATATTG,-0.0299
CAATAACC,-0.0696
ACAATTTG,-0.233
AACCCAGC,-0.0749
CACAGGTC,-0.2
AACTAAAT,-0.15
ACCGGTGA,0.222
CTAGGGTC,-0.169

# Set 4 — method: RNA Bind-n-Seq; molecule type: RNA; sample: in vitro; concentration: not given; setting: RNA with constant flanks, ends assumed; baseline: input RNA pool; reading: higher = stronger binding
# Target: RING finger protein unkempt homolog, zinc fingers 1-6, GST-SBP tag (UNK, Homo sapiens, UniProt Q9C0B0, residues 30-357)
# Sequence of UniProt Q9C0B0 (30-357, looked up): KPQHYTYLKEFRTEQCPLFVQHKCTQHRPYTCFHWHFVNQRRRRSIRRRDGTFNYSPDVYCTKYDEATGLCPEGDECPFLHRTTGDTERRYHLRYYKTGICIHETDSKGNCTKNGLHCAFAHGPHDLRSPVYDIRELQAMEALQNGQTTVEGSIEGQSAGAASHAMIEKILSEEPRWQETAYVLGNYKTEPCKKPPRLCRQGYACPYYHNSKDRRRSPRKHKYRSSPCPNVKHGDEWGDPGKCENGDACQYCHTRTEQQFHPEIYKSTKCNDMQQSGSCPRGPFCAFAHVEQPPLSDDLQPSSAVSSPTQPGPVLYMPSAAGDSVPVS
# Constant ends, left off below: GGGAGUUCUACAGUCCGACGAUC … CAACAGAGGAUUGAGCAUCA
Oligonucleotide,bound/input enrichment
CUUCUCAUGACCAACUGUAUCAAGAAUGAUCUUAAUCAUAGCACGCAGUUUGUGCAGGGGCCCGCACUUUGUACCCUCGGCUGCAUGGGCUCCUCGGAGAUGUGCAGAGAUCUUGCGGGA,0.189 ratio
GCUAUGAAAAGGGGAGAGCCUGCCAUCUACAGGCCAUUAGAUCCAAAGCCAUUCCCAAAUUACCGAGCUAAUUACAACUUUCGGGGCAUGUACAAUCAGAGGUAUCAUUGCCCAGUGCCU,0.485 ratio
AAGAAUAUUCGAUUUCCACUGAUGACACCACAGGAUCUCAUCAAUUACGUGCAGACAGCCGAUUUCAUGAGAACAGACAAUACCUGCGUGAAUUUGCUUUUGGAAGCUAGCAAUUACCAA,0.27 ratio
CCAGUGAGAAAAAGAGUGCUGGAAAAACGUGGAGACGACUUUAAAAAGGAGGGGAAAAUUUACCGAUUAAGGACUCAAGAUGAUGGUGAAGAUGAAAACAACACUUGGAAUGGAAAUUCC,0.342 ratio
GAGGAAACAGACUACACUCCCGUUUGGUGCAUGCGCCAGGCAGGCCGUUACUUACCAGAGUUCCGGGAAACCCGGGCUGCCCAGGACUUUUUCAGCACGUGUCGCUCUCCUGAGGCCUGC,0.159 ratio
CAUCGACAUUGGUAAUGUGGCCAGCUCUCCUUGGUCCUGUCCUCAGCCGAUGCUUUUUCAACCGGAUUUUUAUGCUUUGUGUACCUCAACCAAGUAUGAAGAGCUGUACUGGUUUUAUAG,0.153 ratio
UUCUUGAAGGCUAUUGGGUAUCUUAUUCCUCUUAUGGAUGCAGAAUAUGCCAACUACUAUACCCGAGAAGUGAUGUUAAUCCUCAUUCGAGAAUUUCAGUCUCCUGAUGAAGAAAUGAAG,1.12 ratio
CGGGAGUCCCAGUGCCACAUCCUGGAAGAUCUGCUUGGCUGCCAUUAACUCUUCCUGGAAUUCCGAAGUUUUUGUUAUUUUUACUUUUAUACAGAUUGGUUUUAAGCUCUUGCCUUCUAC,0.409 ratio
GAGGGAAGAGAUGAAUCUUCAAGGAUACCUACCUCUGAUACAUCAUCUAGAUCUCAUAUUUUCCGAAGAGAAUCAAAUGAAGUGGUUCACCUUGAAGCACAGAAUGAUCCUCUUGGAGCU,0.216 ratio
GGACAUCUCCAGUCAGAAAGUGGAGCUGUUCCAAAAAGAAAAGACCCCUUAACACACACCCGUAAUUCACUGCCUCGUUCAAAAACAGUUAUGAAAACUGGAUCUGCAGGCCUUUCAGGC,0.238 ratio
GGGAGCGCCAUCAGAACCCAGGGAAUCUUUCUGAAGCCACACUCAUCUGACACACGUACACUCCGACCUGUCUCUUCUUUUGCUUUUCAAUUUUGGAAAGGGAUCUCUGUCCAGGUCAGC,0.106 ratio

# Repeated from above (set 1):
Oligonucleotide,RBNS enrichment (R)
CUUCAAAGUACACUUGCAAUGCAGUGUAUGCCUGUAGUUGCUGCUGCCACCGGCAGGGGGCCUUUGCUUACAGGGUCUGCAUAGGUUGUUAUGGAUUUGUGACUUUGGCA,0.739
CACACCCGCCUUUCUUGAAUGGCUUCGUGUUACUCAGCCGUGCCCUGGCAGGAAUGGAACUCCAUCAGGGAACAGGGCAGCUCUGUUUGAAUGGGGUGAAAAACAGCAAA,0.742
UAUCUAUCUUAUUUCAGUACUUCGGCAAGAGAGAACCUAACUGUAUCUUUGAGGCGAUAGUAGAACACAGAGGCCAGUAACGGGUCGUAAUGACUUACUGUGGAUAACAA,0.478
CCGAGCCAGCAGCUGAAGUCUCUUUUUCUUCCUCUCGGCUGGAAGAACAUCAAGAUACCUUUGCGUGGAUCAAGCUUGUGUACUUGACCGUUUUUAUAUUACUUUUGUAA,0.339
